{"data": "Published values gathered from unrelated publications", "target": "Sodium-dependent noradrenaline transporter (SLC6A2, Homo sapiens, UniProt P23975)", "note": "Lines come from different studies, so protocols differ. “And” joins repeats or separate records; there may be more than shown."}
{"Structure (SMILES)": "CCOC(=O)[C@](CC)(CCCSCCOCCOCCNC(=O)c1ccc(-c2c3ccc(=N)c(S(=O)(=O)O)c-3oc3c(S(=O)(=O)O)c(N)ccc23)c(C(=O)O)c1)NC(=O)c1ccc(C2CC2)c(Cc2ccc(F)cc2)n1", "assay": "ligand displacement, radioligand", "setting": "10 µM", "measurement": "inhibition", "result": "9%"}
{"Structure (SMILES)": "Cc1sc2c(c1C)C(c1ccc(Cl)cc1)=NC(CC(=O)OC(C)(C)C)c1nnc(C)n1-2 (stereo not shown)", "assay": "ligand displacement, radioligand", "setting": "1 µM", "measurement": "remaining binding", "result": "110%"}
{"Structure (SMILES)": "C[C@@H]1COCCN1c1nc(NCc2cccnc2C(F)(F)F)c2cccnc2n1", "assay": "binding", "setting": "CEREP panel", "measurement": "IC50", "result": "40.1 µM"}
{"Structure (SMILES)": "CN[C@@H]1[C@H](O)[C@H](NC)[C@H]2O[C@]3(O)[C@H](O[C@@H]2[C@H]1O)O[C@H](C)C[C@H]3NC(=O)Cc1cc(Cl)ccn1", "assay": "ligand displacement, radioligand", "setting": "10 µM", "measurement": "inhibition", "result": "-1%"}
{"Structure (SMILES)": "CCCO[C@H]1[C@H](O)[C@@H](N)[C@@H](O[C@H]2[C@H](O[C@@H]3O[C@H](CO)[C@@H](O[C@H]4O[C@@H](CN)[C@@H](O)[C@H](O)[C@H]4N)[C@H]3O)[C@@H](O)[C@H](N)C[C@@H]2N)O[C@@H]1CO", "assay": "radioligand binding", "setting": "10 µM, 1% DMSO", "measurement": "specific binding", "result": "8%"}
{"Structure (SMILES)": "CCc1nnc(-c2c(OC)cc(-c3cnc4cc(-c5cnn(C)c5)ccn34)cc2OC)o1", "assay": "antagonist radioligand, radioligand binding", "setting": "10 µM, SafetyScreen44 norepinephrine transporter mean", "how to read": "lower = stronger displacement", "measurement": "remaining binding", "result": "107%"}
{"Structure (SMILES)": "CS(C)(=O)=Nc1ccc(-c2ccc(-c3nc4cc(O[C@@H]5CO[C@H]6[C@@H]5OC[C@H]6O)[nH]c4cc3F)cc2)cc1", "assay": "ligand displacement, radioligand", "setting": "10 µM", "measurement": "inhibition", "result": "43%"}
{"Structure (SMILES)": "N[C@H](C(=O)N1CCCC1)C1CCN(c2nccc3c(-c4ncc(Cl)cc4Cl)cccc23)CC1", "assay": "ligand displacement", "setting": "10 µM", "measurement": "inhibition", "result": "22%"}
{"Structure (SMILES)": "O=C(O)c1ccc(-c2nc(-c3ccccc3Cl)c3sccn23)cc1", "assay": "radioligand binding, safety screen panel", "setting": "10 µM", "how to read": "reference: control", "measurement": "specific binding", "result": "112% and 114%"}
{"Structure (SMILES)": "Cc1cc(Nc2nc(C[C@@]3(C(=O)O)CCN(Cc4cccc(Cl)c4F)[C@H](C)C3)cc(C)c2F)[nH]n1", "assay": "inhibitor", "setting": "10 µM", "measurement": "inhibition", "result": "5.33%"}
{"Structure (SMILES)": "CCN(CC)CCOc1ccc(-c2nnn(Cc3ccc(OC)cc3)c2N)cc1", "assay": "radioligand binding", "system": "HEK293", "setting": "10 µM, safety profiling", "measurement": "inhibition", "result": "4.46%"}
{"Structure (SMILES)": "COc1ccc(F)cc1S(=O)(=O)Nc1cnc2c(c1)C(=O)NCCO2", "assay": "ligand displacement, radioligand", "setting": "10 µM", "measurement": "inhibition", "result": "4%"}
{"Structure (SMILES)": "C/C(=N\\OCCCN1CCCCC1)c1ccc(C(F)(F)F)cc1", "assay": "uptake, inhibitor", "setting": "10 µM", "measurement": "inhibition", "result": "-11.9%"}
{"note": "A few entries again:"}
{"Structure (SMILES)": "CS(C)(=O)=Nc1ccc(-c2ccc(-c3nc4cc(O[C@@H]5CO[C@H]6[C@@H]5OC[C@H]6O)[nH]c4cc3F)cc2)cc1", "assay": "ligand displacement, radioligand", "setting": "10 µM", "measurement": "inhibition", "result": "43%"}
{"Structure (SMILES)": "N[C@H](C(=O)N1CCCC1)C1CCN(c2nccc3c(-c4ncc(Cl)cc4Cl)cccc23)CC1", "assay": "ligand displacement", "setting": "10 µM", "measurement": "inhibition", "result": "22%"}
